Published values pooled from the literature.
Values joined by “and” are separate records of one study, mostly repeats; a detail may differ. ± gives the spread as reported.

COc1cccc(CC2NC(=O)CN(Cc3ccccc3)C2=O)c1I (stereo not drawn)
evoked audible vocalizations (rat spinal nerve ligation; intraperitoneal, 3 mg/kg, with: gabapentin 30 mg/kg i.p.): decreased

N=C(N)NCCC[C@H](NC(=O)[C@H](CCCNC(=N)N)NC(=O)[C@H](CCCCN)NC(=O)[C@H](CCC(N)=O)NC(=O)[C@H](CCCCN)NC(=O)[C@H](Cc1ccc(O)cc1)NC(=O)[C@@H](N)CCCCN)C(=O)N[C@@H](CO)C(=O)N[C@@H](Cc1ccc(O)cc1)C(=O)N[C@@H](CCCCN)C(=O)O
median VAS change (dentin hypersensitivity patients aged ≥sample A years; 5 µg/tooth, day 36, unit not given; relative to: baseline): -11.5

NC(=O)c1cnc2[nH]ccc2c1N[C@@H]1[C@@H]2CC3C[C@H]1C[C@@](O)(C3)C2
percent change (CD8+ naive T cells, flow cytometry; Caucasian humans, peripheral blood; 200 mg single dose; relative to: baseline): -0.75%

CSCCNc1nc(SCCC(F)(F)F)nc2c1ncn2[C@@H]1O[C@H](COP(=O)(O)OP(=O)(O)C(Cl)(Cl)P(=O)(O)O)[C@@H](O)[C@H]1O
patients with IPA above threshold (platelet aggregation, light transmittance aggregometry; human, platelet-rich plasma; dose not given, 15 min, IPA above 90 %, with: TRAP 15 µM; relative to: patients): 0%

CCCCC1(CCCC)CN(c2ccccc2)c2cc(SC)c(OCC(=O)N[C@@H](C(=O)NCC(=O)O)c3ccccc3)cc2S(=O)(=O)C1
plasma C4 (item: 7α-hydroxy-4-cholesten-3-one; human, plasma; 20 mg once daily, day 7): 74.6 ng/mL

C[C@H](Oc1ccc(Br)cc1-c1ccon1)C(=O)O
grip release time (handgrip dynamometry; healthy human males; 400 mg twice daily, multiple doses, from 90% to 50% of MVC; relative to: placebo): -13.3 ms

O=C1CCc2ccc(OCCCCN3CCN(c4cccc(Cl)c4Cl)CC3)cc2N1
stopping or switching (patients CYP2D6 IM; 3 months): 18%

C[C@H]1O[C@@H](O[C@H]2CC[C@@]3(C)[C@@H](CC[C@]4(C)[C@@H]3C=C[C@]35OC[C@@]6(CCC(C)(C)C[C@H]63)[C@@H](O)C[C@]54C)[C@]2(C)CO)[C@H](O)[C@@H](O[C@@H]2O[C@H](CO)[C@@H](O)[C@H](O)[C@H]2O)[C@H]1O
ALT activity (chronic-plus-binge ethanol mice, plasma; oral, 5 mg/kg/day for 7 d, 168 h): 22.5 U/L and 33.1 U/L and 25 U/L and 28 U/L and 25.2 U/L and 32.8 U/L

COc1nnc2ccc(N3CCC(c4ccc(OCCN5CCN(C)C(=O)[C@H]5C)cc4)CC3)nn12
time above HEXIM1 threshold (human patients; 15 mg twice daily, 2-fold above baseline): 3.77 h

O[C@H]1CCCN[C@@H]1CCCn1cnc2c(Cl)c(Cl)ccc21
maximum reduction (ELISA, item: Pro-C6; healthy human volunteers, serum; intraduodenal, 25 mg twice daily, day 14, multiple ascending dose): 6.45%

[Cl-].[Cl-].[Pt+2].[Ru+2].c1ccc(-c2nccnc2-c2ccccn2)nc1.c1cnc2c(c1)ccc1cccnc12.c1cnc2c(c1)ccc1cccnc12
negative activation entropy (chloride substitution, UV-vis kinetics; aqueous buffer; concentration not given, pH 7.2, second substitution step, with: thiourea): 147 ± 8 J/(mol·K)

OC[C@H]1O[C@@H](c2ccc(F)c(Cc3cc4ccccc4s3)c2)[C@H](O)[C@@H](O)[C@@H]1O
time glucose at most 70 mg/dL (continuous glucose monitoring; Japanese type 1 diabetes patients; 25 mg/day, day 1; relative to: baseline): 10.6 ± 9.33 % change

CC(c1cc2ccccc2s1)N(O)C(N)=O (stereo not drawn)
LTB4 level (human blood; 3 µM, with: A23187): 1170 ± 577 pg/mL

CN(C(=O)n1cnc(-c2ccc[n+]([O-])c2)c1)C1CCCCC1
AUC(0-tau) (item: LEA; human, plasma; 20 mg once daily, day 10): 222 ng·h/mL

Cc1n[nH]c2ccc(-c3cc(OC[C@@H](N)Cc4ccccc4)cnc3-c3ccoc3)cc12
log2 fold change (kinase binding, competitor, MIB/MS competition, item: SHA3; Candida albicans cell lysate; 10 µM; relative to: DMSO): -1.8

CC[C@@H]1[C@H](F)C(=O)N[C@@H]1COc1nccc2cc(C(N)=O)c(OC)cc12
inhibition (ATP-site probe binding, ActivX profiling, item: MAP2K1, MAP2K2; THP-1 cell lysate; 0.04 mM, Lys2 site): -4.8%

C[C@@H](O)CCOC(=O)C[C@@H](C)O
metabolite level (item: C20 acylcarnitine; human, plasma; 60 min, log2-transformed values): -7.77 ± 0.68 µmol/L

C[C@H]1C[C@H]2CSC(N)=N[C@@]2(c2nc(NC(=O)c3ccc(OC(F)F)cn3)cs2)CO1
percent change from baseline (item: Aβ1-40; healthy adults, plasma; 160 mg single dose, 4 h post-dose; relative to: placebo): -61.6%
